Measured values from different studies.
Numbered parts are unrelated; each lists some results of a single study.

Series 1 — read-out: enzyme activity; action: inhibitor; tested at: 20 µM
Target: Replicase polyprotein 1ab, polymerase (rep, Severe acute respiratory syndrome coronavirus 2, UniProt P0DTD1)
| SMILES | inhibition |
| --- | --- |
| C[C@@H](O)[C@H](N)C(=O)N1CCC[C@H]1C(=O)N1CCC[C@H]1C(=O)N[C@H](C(N)=O)[C@@H](C)O | 3.64% |
| COc1ccc(/C=C/C(=O)/C=C(O)/C=C/c2ccc(OC)c(OC)c2)cc1OC | 22.9% |
| O=c1n(Cl)c(=O)n(Cl)c(=O)n1Cl | 4.62% |
| CC[C@H]1OC(=O)[C@H](C)[C@@H](O[C@H]2C[C@@](C)(OC)[C@@H](O)[C@H](C)O2)[C@H](C)[C@@H](O[C@@H]2O[C@H](C)C[C@H](N(C)C)[C@H]2O)[C@](C)(O)C[C@@H](C)C(=O)[C@H](C)[C@@H](O)[C@]1(C)O | 6.45% |
| CC(=O)OCC1=C(C(=O)O)N2C(=O)[C@@H](N)[C@H]2SC1 | -4.07% |
| Cc1ccc(C)c(OCCCC(C)(C)C(=O)O)c1 | 27.7% |
| Cc1c(OCC(F)(F)F)ccnc1C[S+]([O-])c1nc2ccccc2[nH]1 (centres unmarked) | 1.55% |
| O=C1NC(=O)c2cc(Nc3ccc(F)cc3)c(Nc3ccc(F)cc3)cc21 | -1.86% |
| COc1cc2c(cc1OC)-c1cc3nc4ccccc4nc3n1C(C)(C)C2 | -1.24% |
| NC(Cc1ccc(O)cc1)C(=O)O (racemic) | -0.73% |
| COc1ccn2ncc(-c3nc4[nH]nc(NC(=O)c5ccc(F)cc5)c4cc3F)c2c1 | 2.25% |
| CO[C@H]1/C=C/O[C@@]2(C)Oc3c(C)c(O)c4c(O)c(c(/C=N/N5CCN(C)CC5)c(O)c4c3C2=O)NC(=O)/C(C)=C\C=C\[C@H](C)[C@H](O)[C@@H](C)[C@@H](O)[C@@H](C)[C@H](OC(C)=O)[C@@H]1C | 16.9% |
| COc1ccc(-c2cc(=O)c3c(OC)c(OC)c(OC)c(OC)c3o2)cc1OC | 4.77% |
| COc1cc(/C=C/C(=O)CC(=O)/C=C/c2ccc(O)c(OC)c2)ccc1O | 9.98% |
| COc1cc(C(=S)N2CCOCC2)cc(OC)c1OC | 6.39% |
| CS(=O)(=O)c1ccc(Oc2cc(F)cc(C#N)c2)c2c1[C@H](O)C(F)(F)C2 | 1.88% |
| Cc1ccc(-c2cn3c4c(sc3n2)CCCC4)cc1 | -1.41% |
| CCn1c2ccccc2c2cc(CNCc3ccccc3OC)ccc21 | 2.5% |
| CC1=C(C(=O)O)N2C(=O)[C@@H](NC(=O)[C@H](N)c3ccc(O)cc3)[C@H]2SC1 | -0.74% |
| CN(C)C(=O)Oc1cccc([N+](C)(C)C)c1 | 31.3% |
| NC1CCN(c2nc3c(cc2F)c(=O)c(C(=O)O)cn3-c2ccc(F)cc2F)C1 (centres unmarked) | 7.78% |
| OC[C@@H](O)[C@@H](O[C@@H]1O[C@H](CO)[C@H](O)[C@H](O)[C@H]1O)[C@H](O)[C@@H](O)CO | -9.71% |
| CC1(C)CCC(C)(C)c2cc(C3(c4ccc(C(=O)O)cc4)OCCO3)ccc21 | -10.3% |
| CCOC(=O)COc1ccc2c(=O)cc(-c3ccccc3)oc2c1 | -16% |
| CCNC(=O)CCC/C=C\C[C@@H]1[C@@H](/C=C/[C@@H](O)CCc2ccccc2)[C@H](O)C[C@@H]1O | -2.67% |

Series 2 — technique: competition protein-binding microarray; molecule type: double-stranded DNA, one strand shown; matrix: in vitro; tested at: 2 µM; added: Pho4 competitor, 0.05 µM; direction: higher = stronger binding
Target: Centromere-binding protein 1, full length, His-tagged (CBF1, Saccharomyces cerevisiae, UniProt P17106, residues 1-351)
Chain of UniProt P17106 (whole entry, looked up): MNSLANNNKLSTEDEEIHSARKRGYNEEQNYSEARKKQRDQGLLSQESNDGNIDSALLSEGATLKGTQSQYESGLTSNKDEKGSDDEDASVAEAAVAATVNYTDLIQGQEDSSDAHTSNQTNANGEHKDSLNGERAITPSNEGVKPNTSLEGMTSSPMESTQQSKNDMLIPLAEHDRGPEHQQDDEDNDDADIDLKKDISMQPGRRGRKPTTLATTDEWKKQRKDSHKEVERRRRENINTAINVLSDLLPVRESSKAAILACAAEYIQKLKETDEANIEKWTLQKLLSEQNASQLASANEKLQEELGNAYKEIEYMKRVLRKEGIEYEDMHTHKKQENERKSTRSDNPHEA
Setting: whole 60-bp probe, lowest competitor level
| Sequence | fluorescence intensity [a.u.] |
| --- | --- |
| CTTCTGTAAATTTGATGCGTGGGTGGACGCGCCCCGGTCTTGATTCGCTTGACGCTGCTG | 95 |
| CATACCCAACCTTGATTAGTGGGTGAAGATATTTGTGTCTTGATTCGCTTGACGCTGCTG | 79.4 |
| CCGCTAATAACCGTCCCCGTGACGGAGTACCTATCGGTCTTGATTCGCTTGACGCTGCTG | 768 |
| AACCAGTCCAAAAGGTACGTGCAATAAAAGAAGTTGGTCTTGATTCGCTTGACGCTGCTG | 87.4 |
| GTTCTTACAAACAGGAACATTAGCATCATTGGATACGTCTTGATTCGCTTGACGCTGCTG | 72.4 |
| CGATGTGTTTACCATCACGGGAATCAGAAATATGTTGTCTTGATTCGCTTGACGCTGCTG | 349 |
| GGAAACGACTGCGAACACGTGCAGATGCAAAGGACAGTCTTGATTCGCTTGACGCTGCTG | 2040 |
| CCGTCAGATAATATATCCCCGTATAGGTTTGGTGCCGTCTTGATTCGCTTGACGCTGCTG | 77.9 |

Series 3 — technique: protein-binding microarray; molecule type: double-stranded DNA, one strand shown; matrix: in vitro; tested at: 2200 nM top; setting: 60-bp whole probe; added: salmon DNA 0.4 mg/ml; relative to: random background probes; direction: higher = stronger binding; shared flanks, not repeated: GCCTAGCAC … GTCTTGATTCGCTTGACGCTGCTG
Target: Interferon regulatory factor 7, full length, phosphomimetic (IRF7, Homo sapiens, UniProt Q92985, residues 1-503, S471D/S472D/S475D/S476D/S477D/S483D/S484D/S487D)
Target sequence (chain): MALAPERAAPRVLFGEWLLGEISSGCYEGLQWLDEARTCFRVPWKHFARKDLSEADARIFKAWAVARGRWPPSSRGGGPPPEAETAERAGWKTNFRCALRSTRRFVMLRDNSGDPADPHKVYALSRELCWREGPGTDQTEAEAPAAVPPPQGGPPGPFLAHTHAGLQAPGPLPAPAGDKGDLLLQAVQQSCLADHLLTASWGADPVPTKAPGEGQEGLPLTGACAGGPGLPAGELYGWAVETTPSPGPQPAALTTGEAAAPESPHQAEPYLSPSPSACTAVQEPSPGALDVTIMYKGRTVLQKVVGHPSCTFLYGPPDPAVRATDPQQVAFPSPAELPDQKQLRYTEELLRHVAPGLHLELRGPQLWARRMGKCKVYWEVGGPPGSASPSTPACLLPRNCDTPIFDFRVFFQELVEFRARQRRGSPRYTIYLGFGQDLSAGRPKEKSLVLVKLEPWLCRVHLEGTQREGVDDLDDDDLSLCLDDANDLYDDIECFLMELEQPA
| Sequence | fitted relative affinity |
| --- | --- |
| TCACCTCCCCCTCTGCCACTGTGCTAG | 0.291 z-score |
| TCAGCTTTGCCTTTTGCACTGTGCTAG | 1.01 z-score |
| AAACCTATAGGGCCTGACTTCGTGCTA | -0.397 z-score |
| TTAGGACTGCGTCTCCTTTAGTGCTAG | 0.334 z-score |
| GACGGTTTCGTGTTTCGGGACGTGCTA | 8.08 z-score |
| GACGGTTTCCTACTGCTGTCGTGCTAG | 2.29 z-score |
| TCATGTCTGTGTTTCCTACTGTGCTAG | 2.17 z-score |
| TTAGATTTCAGTTTCGATTCGTGCTAG | 13.4 z-score |

Series 4 — technique: RNA Bind-n-Seq; molecule type: RNA; matrix: in vitro; tested at: not given; relative to: input RNA pool; direction: higher = stronger binding
Target: RING finger protein unkempt homolog, zinc fingers 1-6, GST-SBP tag (UNK, Homo sapiens, UniProt Q9C0B0, residues 30-357)
Setting: RNA with constant flanks, human and mouse sites, ends assumed
Residues (chain): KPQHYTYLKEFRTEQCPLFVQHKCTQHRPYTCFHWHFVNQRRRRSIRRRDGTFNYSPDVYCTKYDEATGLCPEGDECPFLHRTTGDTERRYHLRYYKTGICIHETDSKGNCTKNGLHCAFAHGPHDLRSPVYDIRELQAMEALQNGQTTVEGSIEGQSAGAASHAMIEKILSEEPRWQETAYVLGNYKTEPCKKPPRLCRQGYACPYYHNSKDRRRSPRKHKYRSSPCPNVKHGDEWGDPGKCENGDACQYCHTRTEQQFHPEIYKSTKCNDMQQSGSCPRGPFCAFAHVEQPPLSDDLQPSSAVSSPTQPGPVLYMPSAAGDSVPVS
| Sequence | bound/input enrichment [ratio] |
| --- | --- |
| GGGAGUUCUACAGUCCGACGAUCGAGGGGGUGGAGUUAAUGGAGCCACUGCUGGAACCUGGGCAGGAGCUCGGGGAGACAGCCCUUCAUCUUGCCGUCAGGACCGCAGACCAGACAUCUCUCCAUCUGGUUGAUUUCCUUGUACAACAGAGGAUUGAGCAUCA | 0.087 |
| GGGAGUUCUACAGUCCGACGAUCCCCUUUUCUAAAAUUGAGAUAACAUAGUUCUUGAAUAUUUUGCUGUAUUUAUAGCCUCAUAUUUAGGCAUUUAUGCACUGAUGUGUCUUCAAUAAAAAUCUUGUACAGAUAUAUUUUUAUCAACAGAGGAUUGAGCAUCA | 0.619 |
| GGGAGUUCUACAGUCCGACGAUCCUUGGUGGAGAGUGUGUGACCGGUCCUGUUGGGUUGCUUUCAAUAUUGUCUCCUCACCCUCUGGUGUUGAUUCGACACUUCUUUUCCGUUGCAAUCUACGCCACGUAUUUCUGCUUCAAACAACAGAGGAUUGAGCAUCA | 0.151 |
| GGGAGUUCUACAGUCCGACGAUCGAGACCUUUUCCAGUUAUAUCAGCGUUCAUAAUGAUAGCAAUCAAGUUGUAAAAGACAUAUUAGUAAAAGCUGAUCUUCAGACAAGUUCUCAGCGUUUAAAUCUUUCAGCCUCCAAUGCUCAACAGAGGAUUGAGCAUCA | 0.783 |
| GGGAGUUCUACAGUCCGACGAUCUUAGUUGUAGAUGACACAGAUAAACUUAGAUCAAAAUGAAAGUUGAAGGUCUUUAUUUCUCAAACUCUUUGGUGUUAAUAGAAUCCUAACAAAGUUUCAUUAGUCUAUUGUUUUAGUUAGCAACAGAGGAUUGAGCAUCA | 3.77 |
| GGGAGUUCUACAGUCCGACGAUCUAUCAAGCAGUCAUUCAAUGACUAUAACCUCUACUCCCUUGGGAUUGUAGAAUUAUAACUUUUAAAAAAAAUGUAUAAAUUAUACCUGGCCUGUACAGCUGUUUCCUACCUACUCUUCUUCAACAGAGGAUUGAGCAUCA | 0.772 |
| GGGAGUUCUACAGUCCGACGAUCGUCUAAUAAAAAGACAAGCGGUGGGACAGAGGGAACCUACAACCAAAAACUGCCUAGAUCUUUGCAGUUAUGUGCUUUAUGCCACGAAGAACUGAAGUAUGUGGUAAUUUUUAUAGAAUCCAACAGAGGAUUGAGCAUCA | 0.409 |
| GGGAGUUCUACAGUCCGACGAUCUACCAGCAGGCGUUGCUGCUGCUGGGGGCCACCGCCCUGGCCUGCCUGGCCCUAGAUCUCCUCUUCCUACUCUUCUAUUCCUUCUGGCUGUGCUGCCGGAGGAGAAAGACAGACGAGCACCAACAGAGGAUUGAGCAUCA | 0.0712 |

Series 5 — read-out: enzyme activity; action: inhibitor; tested at: 20 µM; setting: primary screen
Target: Replicase polyprotein 1ab, main protease (rep, Severe acute respiratory syndrome coronavirus 2, UniProt P0DTD1)
| SMILES | inhibition |
| --- | --- |
| Oc1cc(O)c2cc(O)c(-c3cc(O)c(O)c(O)c3)[o+]c2c1 | 40.7% |
| O=C(NC1CCCCC1)N(CCCl)[N+][O-] | 62% |
| CC1(C)C(=O)N=C2C1=C(O)C(=O)c1ccccc12 | 58.8% |

Other studies, line by line
| Structure (SMILES) | cell line | conditions | how to read | quantity | value |
| --- | --- | --- | --- | --- | --- |
| Cl.NCC(=O)CCC(=O)O | HEK-293T-ACE2 | concentration not given | relative to: vehicle | cell number | 100% |

Excerpt of the above (series 1):
| SMILES | inhibition |
| --- | --- |
| O=C1NC(=O)c2cc(Nc3ccc(F)cc3)c(Nc3ccc(F)cc3)cc21 | -1.86% |
| COc1cc2c(cc1OC)-c1cc3nc4ccccc4nc3n1C(C)(C)C2 | -1.24% |
| NC(Cc1ccc(O)cc1)C(=O)O (racemic) | -0.73% |
| COc1ccn2ncc(-c3nc4[nH]nc(NC(=O)c5ccc(F)cc5)c4cc3F)c2c1 | 2.25% |
